Measurements collected from several papers.
Protocols differ between the studies behind these lines.
CRBN/Zinc finger protein Aiolos: CRBN/Zinc finger protein Aiolos (Homo sapiens, UniProt Q96SW2+Q9UKT9)
PNLIP: Pancreatic triacylglycerol lipase (PNLIP, Homo sapiens, UniProt P16233)
UniProt P16233, sequence (whole entry, looked up): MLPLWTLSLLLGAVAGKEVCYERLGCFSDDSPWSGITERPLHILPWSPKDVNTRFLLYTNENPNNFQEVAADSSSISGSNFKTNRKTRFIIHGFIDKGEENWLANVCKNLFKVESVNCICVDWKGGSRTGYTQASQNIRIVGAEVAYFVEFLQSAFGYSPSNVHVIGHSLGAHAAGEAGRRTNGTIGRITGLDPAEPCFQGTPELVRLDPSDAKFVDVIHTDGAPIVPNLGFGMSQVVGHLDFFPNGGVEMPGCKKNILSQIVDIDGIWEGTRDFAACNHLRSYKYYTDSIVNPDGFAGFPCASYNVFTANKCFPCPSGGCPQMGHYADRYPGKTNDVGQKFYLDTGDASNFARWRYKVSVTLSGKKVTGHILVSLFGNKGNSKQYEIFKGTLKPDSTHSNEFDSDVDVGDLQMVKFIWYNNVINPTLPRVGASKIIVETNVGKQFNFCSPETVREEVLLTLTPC
MAPK9: Mitogen-activated protein kinase 9 (MAPK9, Homo sapiens, UniProt P45984)
UniProt P45984, sequence (whole entry, looked up): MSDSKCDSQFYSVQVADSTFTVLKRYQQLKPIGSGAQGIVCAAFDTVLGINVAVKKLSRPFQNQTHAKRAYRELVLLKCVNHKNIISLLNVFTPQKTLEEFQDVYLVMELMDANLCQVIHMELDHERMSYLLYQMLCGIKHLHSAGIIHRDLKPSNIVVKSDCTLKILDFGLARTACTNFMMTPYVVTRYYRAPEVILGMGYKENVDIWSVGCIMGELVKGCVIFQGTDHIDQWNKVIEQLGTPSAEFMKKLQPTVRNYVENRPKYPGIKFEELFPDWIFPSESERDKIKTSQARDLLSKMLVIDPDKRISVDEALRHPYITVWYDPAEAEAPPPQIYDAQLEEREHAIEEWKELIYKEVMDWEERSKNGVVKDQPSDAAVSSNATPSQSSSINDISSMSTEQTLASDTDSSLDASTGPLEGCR
CTSS: Cathepsin S (CTSS, Homo sapiens, UniProt P25774)
UniProt P25774, sequence (whole entry, looked up): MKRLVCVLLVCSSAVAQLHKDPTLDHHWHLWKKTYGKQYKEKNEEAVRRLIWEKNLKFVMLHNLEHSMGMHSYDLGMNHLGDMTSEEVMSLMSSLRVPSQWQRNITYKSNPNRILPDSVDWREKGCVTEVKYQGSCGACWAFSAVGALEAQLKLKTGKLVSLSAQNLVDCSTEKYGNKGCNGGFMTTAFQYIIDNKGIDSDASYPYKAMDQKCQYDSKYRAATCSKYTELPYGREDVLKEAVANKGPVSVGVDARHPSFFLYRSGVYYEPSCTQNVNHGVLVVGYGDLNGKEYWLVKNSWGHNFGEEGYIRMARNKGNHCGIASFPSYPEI
UniProt P36969, sequence (whole entry, looked up): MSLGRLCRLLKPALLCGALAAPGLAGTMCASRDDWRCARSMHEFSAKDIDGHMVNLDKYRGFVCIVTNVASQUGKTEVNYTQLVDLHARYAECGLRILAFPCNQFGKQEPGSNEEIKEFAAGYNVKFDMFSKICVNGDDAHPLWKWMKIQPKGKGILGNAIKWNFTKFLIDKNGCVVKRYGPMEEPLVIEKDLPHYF
UniProt P45983, sequence (whole entry, looked up): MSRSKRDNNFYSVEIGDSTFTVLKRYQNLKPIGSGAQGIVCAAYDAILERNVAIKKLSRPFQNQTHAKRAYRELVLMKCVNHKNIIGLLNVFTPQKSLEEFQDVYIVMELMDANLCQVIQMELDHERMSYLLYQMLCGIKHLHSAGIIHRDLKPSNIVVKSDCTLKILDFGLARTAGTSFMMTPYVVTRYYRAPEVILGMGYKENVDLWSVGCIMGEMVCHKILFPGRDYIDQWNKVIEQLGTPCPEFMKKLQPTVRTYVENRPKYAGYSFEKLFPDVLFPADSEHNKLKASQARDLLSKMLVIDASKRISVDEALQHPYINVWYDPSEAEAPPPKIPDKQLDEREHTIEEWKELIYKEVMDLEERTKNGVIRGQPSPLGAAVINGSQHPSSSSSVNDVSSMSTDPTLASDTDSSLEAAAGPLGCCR
UniProt P42336, sequence (whole entry, unmodified, looked up): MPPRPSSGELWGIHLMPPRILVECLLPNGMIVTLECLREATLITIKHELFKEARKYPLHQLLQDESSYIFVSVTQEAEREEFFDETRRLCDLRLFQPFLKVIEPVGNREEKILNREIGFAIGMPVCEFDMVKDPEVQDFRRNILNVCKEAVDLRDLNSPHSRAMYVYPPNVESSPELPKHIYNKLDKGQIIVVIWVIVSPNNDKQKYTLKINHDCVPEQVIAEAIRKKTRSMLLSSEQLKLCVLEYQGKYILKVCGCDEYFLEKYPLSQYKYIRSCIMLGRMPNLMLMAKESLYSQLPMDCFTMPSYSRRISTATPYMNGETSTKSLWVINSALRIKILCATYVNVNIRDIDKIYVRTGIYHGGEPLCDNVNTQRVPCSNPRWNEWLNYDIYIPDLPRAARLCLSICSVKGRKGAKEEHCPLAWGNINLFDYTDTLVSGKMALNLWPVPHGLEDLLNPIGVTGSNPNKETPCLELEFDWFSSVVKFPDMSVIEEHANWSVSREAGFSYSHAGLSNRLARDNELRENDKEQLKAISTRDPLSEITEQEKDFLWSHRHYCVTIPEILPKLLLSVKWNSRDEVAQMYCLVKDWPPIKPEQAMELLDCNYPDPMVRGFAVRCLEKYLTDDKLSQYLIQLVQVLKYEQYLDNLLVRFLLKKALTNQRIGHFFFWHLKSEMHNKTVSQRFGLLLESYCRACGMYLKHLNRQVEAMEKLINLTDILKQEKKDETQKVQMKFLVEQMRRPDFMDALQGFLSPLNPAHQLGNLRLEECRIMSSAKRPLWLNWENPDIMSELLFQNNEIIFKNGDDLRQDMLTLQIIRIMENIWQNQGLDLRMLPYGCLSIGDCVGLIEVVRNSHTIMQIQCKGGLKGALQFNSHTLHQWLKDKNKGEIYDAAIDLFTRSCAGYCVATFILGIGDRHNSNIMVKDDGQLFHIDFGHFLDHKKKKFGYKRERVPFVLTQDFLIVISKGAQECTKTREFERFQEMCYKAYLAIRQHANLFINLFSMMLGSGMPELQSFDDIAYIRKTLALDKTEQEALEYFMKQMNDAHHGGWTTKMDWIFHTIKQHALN
UniProt Q9HB29, sequence (whole entry, looked up): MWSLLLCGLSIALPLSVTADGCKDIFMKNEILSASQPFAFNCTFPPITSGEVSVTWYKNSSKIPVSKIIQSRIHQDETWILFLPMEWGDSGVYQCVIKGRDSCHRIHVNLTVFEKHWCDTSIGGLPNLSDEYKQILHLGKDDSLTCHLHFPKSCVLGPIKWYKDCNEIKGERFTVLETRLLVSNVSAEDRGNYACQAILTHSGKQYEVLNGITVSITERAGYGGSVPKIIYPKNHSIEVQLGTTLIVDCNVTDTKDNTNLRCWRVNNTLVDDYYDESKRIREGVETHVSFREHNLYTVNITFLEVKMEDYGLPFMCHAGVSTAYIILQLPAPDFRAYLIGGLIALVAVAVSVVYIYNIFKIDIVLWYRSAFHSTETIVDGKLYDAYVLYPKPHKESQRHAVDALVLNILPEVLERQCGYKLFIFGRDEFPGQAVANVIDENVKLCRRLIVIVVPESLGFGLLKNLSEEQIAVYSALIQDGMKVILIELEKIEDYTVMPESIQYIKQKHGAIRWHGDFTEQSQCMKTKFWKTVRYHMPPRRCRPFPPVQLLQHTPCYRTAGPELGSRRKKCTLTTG
UniProt Q9P0G3, sequence (whole entry, looked up): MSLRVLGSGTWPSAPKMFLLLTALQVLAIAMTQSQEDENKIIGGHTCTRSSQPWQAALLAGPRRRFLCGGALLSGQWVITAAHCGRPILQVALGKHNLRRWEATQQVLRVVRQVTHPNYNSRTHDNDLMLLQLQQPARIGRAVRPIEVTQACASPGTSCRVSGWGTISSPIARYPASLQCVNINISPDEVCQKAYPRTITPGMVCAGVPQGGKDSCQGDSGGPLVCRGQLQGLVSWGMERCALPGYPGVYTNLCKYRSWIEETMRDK
UniProt P14778, sequence (whole entry, looked up): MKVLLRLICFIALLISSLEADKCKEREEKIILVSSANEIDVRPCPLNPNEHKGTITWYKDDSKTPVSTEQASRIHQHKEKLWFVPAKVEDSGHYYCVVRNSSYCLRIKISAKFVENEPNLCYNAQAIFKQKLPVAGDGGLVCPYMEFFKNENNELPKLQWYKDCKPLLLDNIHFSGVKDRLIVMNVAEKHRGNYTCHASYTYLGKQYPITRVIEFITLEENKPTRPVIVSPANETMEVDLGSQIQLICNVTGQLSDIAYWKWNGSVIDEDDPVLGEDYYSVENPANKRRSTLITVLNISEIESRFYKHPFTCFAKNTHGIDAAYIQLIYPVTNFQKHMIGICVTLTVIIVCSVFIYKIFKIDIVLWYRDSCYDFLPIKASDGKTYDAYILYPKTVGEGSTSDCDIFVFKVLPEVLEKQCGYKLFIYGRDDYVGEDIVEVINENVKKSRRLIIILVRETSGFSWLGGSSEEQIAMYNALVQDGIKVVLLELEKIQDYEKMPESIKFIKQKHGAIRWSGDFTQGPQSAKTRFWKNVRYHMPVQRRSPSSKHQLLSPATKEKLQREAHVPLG

SMILES | target | test | system | setting | scale | remaining activity
O=C1CCC(N2C(=O)c3cccc4c(Cc5cnn(C6CCNCC6)c5)ccc2c34)C(=O)N1 (stereo not shown) | CRBN/Zinc finger protein Aiolos | protein level, degrader, western blot | NCI-H929 | 1 nM, 4 h |  | 75.6%
Cc1ccc2[c](c1)[Au-]([Cl])([Cl])[n+]1ccccc1-2 | Phospholipid hydroperoxide glutathione peroxidase GPX4 (GPX4, Homo sapiens, UniProt P36969) | inhibitor, GR-coupled NADPH |  | up to 36.3 µM, post-incubation, added: enzyme 100 nM |  | 61.5%
O=C1c2cccc(Cl)c2C(=O)c2c(Cl)cccc21 | PNLIP | enzyme activity, inhibitor, fluorescence |  | 50 µM |  | 11.2%
CC(C)(O)C(=O)N1CCC(n2cc(Cc3ccc4c5c(cccc35)C(=O)N4C3CCC(=O)NC3=O)cn2)CC1 (stereo not shown) | CRBN/Zinc finger protein Aiolos | protein level, degrader, western blot | NCI-H929 | 1 nM, 4 h |  | 35.3%
O=C1c2ccccc2C(=O)c2c(O)ccc(O)c21 | PNLIP | enzyme activity, inhibitor, fluorescence |  | 50 µM |  | 6.24%
O=C1CCC(N2C(=O)c3cccc4c(Cc5cnn(C6CCN(C(=O)CO)CC6)c5)ccc2c34)C(=O)N1 (stereo not shown) | CRBN/Zinc finger protein Aiolos | protein level, degrader, western blot | NCI-H929 | 10 nM, 4 h |  | 19%
COC(=O)[C@@]1(C)C=C(C(=O)Nc2cccc(C(=O)Nc3ccc(Nc4nccc(-c5cccnc5)n4)c(C)c3)c2)C(=O)CC1 | MAPK9 | enzyme activity, inhibitor |  | 44.44 µM, unit not given | baseline: vehicle | 0.0476
O=C1CCC(N2C(=O)c3cccc4c(Cc5cnn(C6CCN(C(=O)C7(O)CC7)CC6)c5)ccc2c34)C(=O)N1 (stereo not shown) | CRBN/Zinc finger protein Aiolos | protein level, degrader, western blot | NCI-H929 | 100 pM, 4 h |  | 86.3%
C#CCOC(=O)[C@@]1(C)C=C(C(=O)Nc2cccc(C(=O)Nc3ccc(C)c(Nc4nccc(-c5cccnc5)n4)c3)c2)C(=O)CC1 | MAPK9 | enzyme activity, inhibitor |  | 0.06097 µM, unit not given | baseline: vehicle | 0.761
N#Cc1cnc2sc(C(=O)O)cc2c1N1CCc2[nH]nc(C(=O)N[C@@H](CC(=O)NCCOCCN3CCOCC3)c3cccc(Br)c3)c2C1 | Interleukin-1 receptor type 1 (IL1R1, Homo sapiens, UniProt P14778) | IL-8 release, antagonist | A-431 | 800 µM, 18 h, added: IL-1β 5 ng/mL | baseline: untreated | 86.4%
CN1C[C@@H](c2c[nH]c3cc(Br)ccc23)NC[C@@H]1c1c[nH]c2cc(Br)ccc12 | Mitotic checkpoint serine/threonine-protein kinase BUB1 beta (BUB1B, Homo sapiens, UniProt O60566) | enzyme activity, inhibitor |  | 10 µM |  | 97%
O=C1c2cccc(O)c2C(=O)c2c(O)cccc21 | PNLIP | enzyme activity, inhibitor, fluorescence |  | 50 µM |  | 6.75%
C[C@](C(=O)NC1CCOCC1)(c1cncnc1)N(C(=O)[C@H](F)Cl)c1ccc(OC(F)(F)Cl)cc1 | Kallikrein-14 (Homo sapiens, UniProt Q9P0G3) | enzyme activity, inhibitor |  | 10 µM |  | 104%
O=C1C=CC(=O)c2cc3ccccc3cc21 | PNLIP | enzyme activity, inhibitor, fluorescence |  | 50 µM |  | 6.17%
CC(C)(C)OC(=O)NC(Cc1cccc(Cl)c1)C(=O)NCC=CS(=O)(=O)c1ccccc1 (stereo not shown) | CTSS | inhibitor |  | 5 µM, 60 min, added: Z-Phe-Arg-AMC | baseline: uninhibited control | < 1%
O=C1CCC(N2Cc3c(OCc4ccc(CN5CCNCC5)cc4)cccc3C2=O)C(=O)N1 (stereo not shown) | CRBN/Zinc finger protein Aiolos | protein level, degrader, western blot | NCI-H929 | 10 nM, 4 h |  | 78.2%
CC(C)[C@@H]1NC(=O)[C@H](Cc2ccccc2)NC(=O)CSC[C@@H](C(N)=O)NC(=O)[C@H](CCC(=O)O)NC(=O)[C@H](CO)NC(=O)[C@H](Cc2c[nH]c3cccc(Cl)c23)NC(=O)[C@H](C2CCCCC2)NC(=O)[C@H](C(C)C)NC(=O)[C@H](Cc2ccc(O)cc2)NC(=O)[C@H](CC(=O)O)NC(=O)[C@H](Cc2c[nH]c3ccccc23)NC(=O)[C@H](Cc2ccc(N)nc2)NC(=O)[C@H](Cc2c[nH]c3ccc(Cl)cc23)NC(=O)[C@H](CCC(=O)O)NC1=O | Interleukin-1 receptor-like 2 (IL1RL2, Homo sapiens, UniProt Q9HB29) | reporter gene (SEAP), inhibitor, HEK-Blue IL-36R reporter | HEK-Blue IL-36R cells | 0.005 µM, 6 h, added: IL-36β 0.03 ng/mL |  | 93.7%
O=C=[N][Ru-4]123([n]4c5ccc(O)cc5c5c6c(c7cc(F)c[n+]1c7c54)C(=O)NC6=O)[S+]1CC[S+]2CC[S+]3CC1 (stereo not shown) | Abl2 (Mus musculus, UniProt Q4JIM5) | enzyme activity |  | 100 nM, mouse enzyme, added: 10 µM ATP | baseline: untreated | 113%
COc1cc(Nc2nc(C)cc(-c3cnn4nc(OC)ccc34)n2)cc(C(F)(F)F)c1 | Phosphatidylinositol 4,5-bisphosphate 3-kinase catalytic subunit alpha isoform (PIK3CA, Homo sapiens, UniProt P42336, E542K) | inhibitor |  | 1 µM | baseline: control | 59%
CO[C@@H]1[C@@H](OC(=O)c2ccc(C)[nH]2)[C@@H](O)[C@H](Oc2ccc3c(O)c(NC(=O)c4c[nH]c(C(=O)Nc5c(O)c6ccc(O[C@@H]7OC(C)(C)[C@H](OC)[C@@H](OC(=O)c8ccc(C)[nH]8)[C@H]7O)c(C)c6oc5=O)c4C)c(=O)oc3c2C)OC1(C)C | Large T antigen (Simian virus 40, UniProt P03070) | fork unwinding |  | 250 µM |  | 1%
O=C1CCC(N2C(=O)c3cccc4c(Cc5cnn(C6CCN(C(=O)C7(O)CCC7)CC6)c5)ccc2c34)C(=O)N1 (stereo not shown) | CRBN/Zinc finger protein Aiolos | protein level, degrader, western blot | NCI-H929 | 100 pM, 4 h |  | 71.8%
COC(=O)[C@]1(C(C)C)C=C(C(=O)Nc2cccc(C(=O)Nc3ccc(Nc4nccc(-c5cccnc5)n4)c(C)c3)c2)C(=O)CC1 | Mitogen-activated protein kinase 8 (MAPK8, Homo sapiens, UniProt P45983) | kinase activity, inhibitor |  | 0.1829 µM, unit not given, added: 10 mM glutathione | baseline: no inhibitor | 0.655
O=C1CCC(N2C(=O)c3cccc4c(Cc5ccc(CN6CCNCC6)nc5)ccc2c34)C(=O)N1 (stereo not shown) | CRBN/Zinc finger protein Aiolos | protein level, degrader, western blot | NCI-H929 | 1 nM, 4 h |  | 106%
Cc1cc(NC(=O)c2cccc(N)c2)ccc1Nc1nccc(-c2cccnc2)n1 | MAPK9 | enzyme activity, inhibitor |  | 44.44 µM, unit not given | baseline: vehicle | 0.0616
COC(=O)c1cc2cc3c(cc2oc1=O)N(CC(=O)NC(Cc1ccc(C)cc1)C(=O)NCC=CS(=O)(=O)c1ccccc1)CCC3 (stereo not shown) | CTSS | inhibitor |  | 5 µM, 60 min, added: Z-Phe-Arg-AMC | baseline: uninhibited control | 8%

Excerpt of the above:
SMILES | target | test | system | setting | scale | remaining activity
O=C1CCC(N2Cc3c(OCc4ccc(CN5CCNCC5)cc4)cccc3C2=O)C(=O)N1 (stereo not shown) | CRBN/Zinc finger protein Aiolos | protein level, degrader, western blot | NCI-H929 | 10 nM, 4 h |  | 78.2%
COC(=O)[C@@]1(C)C=C(C(=O)Nc2cccc(C(=O)Nc3ccc(Nc4nccc(-c5cccnc5)n4)c(C)c3)c2)C(=O)CC1 | MAPK9 | enzyme activity, inhibitor |  | 44.44 µM, unit not given | baseline: vehicle | 0.0476
CC(C)[C@@H]1NC(=O)[C@H](Cc2ccccc2)NC(=O)CSC[C@@H](C(N)=O)NC(=O)[C@H](CCC(=O)O)NC(=O)[C@H](CO)NC(=O)[C@H](Cc2c[nH]c3cccc(Cl)c23)NC(=O)[C@H](C2CCCCC2)NC(=O)[C@H](C(C)C)NC(=O)[C@H](Cc2ccc(O)cc2)NC(=O)[C@H](CC(=O)O)NC(=O)[C@H](Cc2c[nH]c3ccccc23)NC(=O)[C@H](Cc2ccc(N)nc2)NC(=O)[C@H](Cc2c[nH]c3ccc(Cl)cc23)NC(=O)[C@H](CCC(=O)O)NC1=O | Interleukin-1 receptor-like 2 (IL1RL2, Homo sapiens, UniProt Q9HB29) | reporter gene (SEAP), inhibitor, HEK-Blue IL-36R reporter | HEK-Blue IL-36R cells | 0.005 µM, 6 h, added: IL-36β 0.03 ng/mL |  | 93.7%
